Measurements from different studies.
“And” joins repeats or separate records; there may be more than shown. Numbers after ± are the reported error.

SMILES | cell line | assay | test system | conditions | scale | quantity | result
NC(=O)N/N=C/c1ccc(OCc2cccc(F)c2)cc1 | IMR-32 | – | – | 200 µg/mL, 24 h | higher = more activity | catalase activity (OD450) | 0.045 a.u.
O=C(O)c1ccc(-c2nc(-c3ccccc3Cl)c3sccn23)cc1 | K562 | flow cytometry | – | concentration not given | relative to: cells | sub-G0 cells | 1.46% and 1.14%
Cc1c(Cl)c(=O)oc2cc(OCCCCCC[Se]C#N)ccc12 | T47D | cell growth or viability, SRB | – | – | – | GI50 | 54 µM
CC(C)C12OC1C1OC13C1(C)CCC4=C(COC4=O)C1CC1OC13C2OC(=O)CCCOC1OC(CO)C(O)C(O)C1O (stereo not shown) | SCC-25 | cell growth or viability, XTT | – | 47 h | – | IC50 | 1.63 µM
CC(C)[C@H](NC(=O)[C@H](CCCNC(=N)N)NC(=O)[C@@H]1CCCN1C(=O)[C@@H](NC(=O)[C@H](C)NC(=O)[C@H](Cc1ccc(O)cc1)NC(=O)[C@H](CCC(N)=O)NC(=O)[C@H](CCCCN)NC(=O)[C@H](CCCNC(=N)N)NC(=O)[C@@H]1CCCN1C(=O)[C@H](CCC(=O)O)NC(=O)[C@@H](NC(=O)[C@H](C)N)[C@@H](C)O)[C@@H](C)O)C(=O)N[C@@H](Cc1ccccc1)C(=O)N[C@@H](Cc1c[nH]c2ccccc12)C(=O)N[C@H](C(=O)N[C@@H](CC(=O)O)C(=O)N[C@@H](C)C(=O)N1CCC[C@H]1C(=O)NCC(=O)NCCOCCOCCOCCOCCOCCOCCOCCOCCOCCOCCOCCOCCC(=O)N[C@@H](CS)C(N)=O)[C@@H](C)O | PC-3 prostate cancer | phage binding | – | – | relative to: targeting over control phage | selectivity ratio | 6.6 ± 0.87
CC(C)CC(O)(CC(C)C)c1cn(C(=O)N2CCCC2)nn1 | mouse T-cells | SILAC proteomics, measured: Ndrg1 | – | 1 nM, 6 h, single peptides, unit not given | relative to: DMSO | protein level | 0.97 and 0.99
O=C(C[Se]C(=O)c1cccs1)Nc1cccc(C(F)(F)F)c1 | NCI60 melanoma subpanel | cytotoxicity, inhibitor | – | five-dose | – | CC50 | 7.22 µM
CC1CCC2C(C)C(OC(=O)CCC(=O)N3CCC(Nc4ccc(S(=O)(=O)NC(=O)c5ccc(N6CCN(CC7=C(c8ccc(Cl)cc8)CC(C)(C)CC7)CC6)cc5Oc5cnc6[nH]ccc6c5)cc4[N+](=O)[O-])CC3)OC3OC4(C)CCC1C32OO4 (stereo not shown) | THP-1 | annexin V/PI flow cytometry, measured: annexin V+/PI- | – | 0.2 µM, 24 h | – | early apoptotic cells | 13.4%
O=C(C[Se]C(=O)C12CC3CC(CC(C3)C1)C2)Nc1cccc(C(F)(F)F)c1 | NCI60 melanoma subpanel | cytotoxicity, inhibitor | – | five-dose | – | CC50 | 28.6 µM
CCC1=NC2CC3(C(=O)N(OC)c4ccccc43)C3OCC2C1C3O (stereo not shown) | HT-22 | CCK-8 | – | up to 100 µM, 24 h | – | viability | no effect
CC[C@H](C)[C@H](NC(=O)[C@H](C)NC(=O)CNC(=O)[C@H](Cc1ccccc1)NC(=O)[C@H](CC(N)=O)NC(=O)[C@H](CC(N)=O)NC(=O)[C@H](CO)NC(=O)[C@H](CO)NC(=O)[C@H](Cc1c[nH]cn1)NC(=O)[C@@H](NC(=O)[C@H](CC(C)C)NC(=O)[C@H](Cc1ccccc1)NC(=O)[C@H](CC(N)=O)NC(=O)[C@H](C)NC(=O)[C@H](CC(C)C)NC(=O)[C@H](CCCNC(=N)N)NC(=O)[C@H](CCC(N)=O)NC(=O)[C@@H](NC(=O)[C@H](C)NC(=O)[C@@H]1CSSC[C@H](NC(=O)[C@@H](N)CCCCN)C(=O)N[C@@H](CC(N)=O)C(=O)N[C@@H]([C@@H](C)O)C(=O)N[C@@H](C)C(=O)N[C@@H]([C@@H](C)O)C(=O)N1)[C@@H](C)O)C(C)C)C(=O)N[C@@H](CC(C)C)C(=O)N[C@@H](CO)C(=O)N[C@@H](CO)C(=O)N[C@H](C(=O)N[C@@H](CC(N)=O)C(=O)N[C@H](C(=O)NCC(=O)N[C@@H](CO)C(=O)N[C@@H](CC(N)=O)C(=O)N[C@H](C(=O)N[C@@H](Cc1ccc(O)cc1)C(N)=O)[C@@H](C)O)C(C)C)[C@@H](C)O | RIN-m5F | colocalization microscopy, measured: HSP70 and HSP90 | – | 10 µM, 24 h | – | Pearson colocalization coefficient | < 0.3
CC(C)C[C@H](NC(=O)[C@H](CC(=O)O)NC(=O)CNC(=O)[C@@H](N)CCCNC(=N)N)C(=O)N[C@@H](C)C(=O)N[C@H](C(=O)N[C@@H](CC(C)C)C(=O)N[C@@H](CCCNC(=N)N)C(=O)N[C@@H](CCC(N)=O)C(=O)N[C@@H](CC(C)C)C(=O)N[C@@H](C)C(=O)N[C@@H](CCC(N)=O)C(=O)N[C@@H](CCC(=O)O)C(=O)N[C@@H](CC(=O)O)C(=O)NCC(=O)N[C@H](C(=O)N[C@H](C(=O)NCC(=O)N[C@H](C(=O)N[C@@H](CCCNC(=N)N)C(=O)NCCOCCOCCOCCOCCOCCOCCOCCOCCOCCOCCOCCOCCC(=O)N[C@@H](CS)C(N)=O)C(C)C)C(C)C)C(C)C)[C@@H](C)O | H2882 lung carcinoma | cell binding, phage binding, measured: output/input phage | – | 10 min, 37 °C | relative to: control phage | selectivity ratio | 1.4 ± 0.22
Cc1cc(Oc2nc(N3CC[C@@H](c4ccncc4)C3)ncc2F)[nH]n1 | Caco-2 | cell proliferation | colon cancer | – | – | IC50 | 49 µM
CC(=O)NCSC[C@H](NC(=O)[C@@H]1CCCN1C(=O)[C@H](C)NC(=O)[C@@H](NC(=O)CNC(=O)[C@@H](NC(=O)[C@H](Cc1c[nH]c2ccccc12)NC(=O)[C@H](C)NC(=O)CNC(=O)[C@H](CO)NC(=O)[C@H](C)NC(=O)[C@@H]1CCCN1C(=O)[C@H](Cc1c[nH]c2ccccc12)NC(=O)[C@H](C)NC(=O)[C@H](C)NC(=O)[C@@H](N)Cc1ccc(O)cc1)[C@@H](C)O)[C@@H](C)O)C(=O)N[C@@H](CO)C(=O)N[C@@H](C)C(=O)NCC(=O)N[C@H](C(=O)NCCOCCOCCOCCOCCOCCOCCOCCOCCOCCOCCOCCOCCC(=O)N[C@@H](CS)C(N)=O)[C@@H](C)O | SKOV3 ovarian cancer | cell binding, phage binding, measured: output/input phage | – | 10 min, 37 °C | relative to: control phage | selectivity ratio | 6.1 ± 3.4
O=C(C[Se]C(=O)c1ccco1)Nc1cccc(C(F)(F)F)c1 | NCI60 melanoma subpanel | cytotoxicity, inhibitor | – | five-dose | – | CC50 | 32.5 µM
CC[C@H](C)[C@H](NC(=O)[C@H](C)NC(=O)CNC(=O)[C@H](Cc1ccccc1)NC(=O)[C@H](CC(N)=O)NC(=O)[C@H](CC(N)=O)NC(=O)[C@H](CO[C@@H]1O[C@H](CO)[C@@H](O)[C@H](O)[C@H]1NC(C)=O)NC(=O)[C@H](CO)NC(=O)[C@H](Cc1c[nH]cn1)NC(=O)[C@@H](NC(=O)[C@H](CC(C)C)NC(=O)[C@H](Cc1ccccc1)NC(=O)[C@H](CC(N)=O)NC(=O)[C@H](C)NC(=O)[C@@H](N)CC(C)C)C(C)C)C(=O)N[C@@H](CC(C)C)C(N)=O | INS-1 | MTT | – | 2 equivalents to hIAPP, 24 h, together with: hIAPP 1 µM | – | viability | 69.7% and 70.3%
CSCC[C@H](NC(=O)[C@@H](NC(=O)[C@H](CCC(N)=O)NC(=O)[C@H](CO)NC(=O)[C@@H](N)C(C)C)[C@@H](C)O)C(=O)N[C@@H](CCCNC(=N)N)C(=O)N[C@@H](CCC(N)=O)C(=O)N[C@H](C(=O)N[C@@H](C)C(=O)N[C@H](C(=O)N1CCC[C@H]1C(=O)N[C@@H](CC(C)C)C(=O)N[C@@H](CC(C)C)C(=O)N[C@@H](Cc1c[nH]c2ccccc12)C(=O)N[C@@H](Cc1ccccc1)C(=O)N[C@@H](Cc1c[nH]c2ccccc12)C(=O)N[C@H](C(=O)NCC(=O)N[C@@H](CO)C(=O)N[C@@H](CC(C)C)C(=O)NCCOCCOCCOCCOCCOCCOCCOCCOCCOCCOCCOCCOCCC(=O)N[C@@H](CS)C(N)=O)[C@@H](C)O)C(C)C)[C@@H](C)O | H2122 lung adenocarcinoma | cell binding, phage binding, measured: output/input phage | – | 10 min, 37 °C | relative to: control phage | selectivity ratio | 1.7 ± 0.39
CC(C)(C)C(=O)OCOP(=O)(OCOC(=O)C(C)(C)C)C1CCCN(O)C1=O (stereo not shown) | T47D | – | – | – | – | GI50 | 0.543 µM
COc1ccccc1-c1ccncc1C(=O)Nc1nnc(OCc2ccc(Cl)cc2)s1 | DLD-1 BRCA2-/- | – | – | 0.06 µM, single replicate | relative to: untreated | colony survival | 84.5% and 101% and 94%
N[C@H](C(=O)N1CCCC1)C1CCN(c2nccc3c(-c4ncc(Cl)cc4Cl)cccc23)CC1 | human neutrophils | protein citrullination, inhibitor, flow cytometry, measured: citrullinated histone H3 | – | 316 pM, together with: ionomycin | – | inhibition | -6.93% and -3.58% and 8.2% and 8.14%
COc1ccc2c(c1)c(CC(=O)[Se]CC(=O)Nc1cccc(C(F)(F)F)c1)c(C)n2C(=O)c1ccc(Cl)cc1 | NCI60 melanoma subpanel | cytotoxicity, inhibitor | – | five-dose | – | CC50 | 10.8 µM
NC(=S)N/N=C/c1ccc(OCc2cccc(F)c2)cc1 | IMR-32 | – | – | 200 µg/mL, 24 h | higher = more activity | catalase activity (OD450) | 0.183 a.u.
O=C(C[Se]C(=O)c1cc2ccccc2o1)Nc1cccc(C(F)(F)F)c1 | NCI60 leukaemia subpanel | NCI60 five-dose screen | – | – | – | CC50 | 10.9 µM
CC(C)Cc1ccc(C(C)C(=O)[O-])cc1.CC(C)Cc1ccc(C(C)C(=O)[O-])cc1.[Cu+2].c1ccncc1.c1ccncc1 (stereo not shown) | OVCAR-3 | cell growth or viability, MTT | – | 48 h | – | GI50 | 24 µM
CC(CO)C1CN2C(=O)[C@H](CC(=O)O)NC(=O)CC(CC3CC3)NC(=O)[C@H](CCC(=O)O)NC(=O)CNC(=O)[C@H]([C@@H](C)O)NC(=O)[C@H](CCC(=O)O)NC(=O)[C@@H]2C1(F)F (stereo partly shown) | RAW264.7 | ELISA | – | concentration not given, together with: LPS | – | IL-6 protein level | inhibited

For quick reference, copied from above:
SMILES | cell line | assay | test system | conditions | scale | quantity | result
CC(C)(C)C(=O)OCOP(=O)(OCOC(=O)C(C)(C)C)C1CCCN(O)C1=O (stereo not shown) | T47D | – | – | – | – | GI50 | 0.543 µM
CC(CO)C1CN2C(=O)[C@H](CC(=O)O)NC(=O)CC(CC3CC3)NC(=O)[C@H](CCC(=O)O)NC(=O)CNC(=O)[C@H]([C@@H](C)O)NC(=O)[C@H](CCC(=O)O)NC(=O)[C@@H]2C1(F)F (stereo partly shown) | RAW264.7 | ELISA | – | concentration not given, together with: LPS | – | IL-6 protein level | inhibited
